Measured values of several laboratories.
Compare with care: the assays were run in different laboratories.
CNR1: Cannabinoid receptor 1 (CNR1, Homo sapiens, UniProt P21554)
UniProt P21554, sequence (whole entry, unmodified, looked up): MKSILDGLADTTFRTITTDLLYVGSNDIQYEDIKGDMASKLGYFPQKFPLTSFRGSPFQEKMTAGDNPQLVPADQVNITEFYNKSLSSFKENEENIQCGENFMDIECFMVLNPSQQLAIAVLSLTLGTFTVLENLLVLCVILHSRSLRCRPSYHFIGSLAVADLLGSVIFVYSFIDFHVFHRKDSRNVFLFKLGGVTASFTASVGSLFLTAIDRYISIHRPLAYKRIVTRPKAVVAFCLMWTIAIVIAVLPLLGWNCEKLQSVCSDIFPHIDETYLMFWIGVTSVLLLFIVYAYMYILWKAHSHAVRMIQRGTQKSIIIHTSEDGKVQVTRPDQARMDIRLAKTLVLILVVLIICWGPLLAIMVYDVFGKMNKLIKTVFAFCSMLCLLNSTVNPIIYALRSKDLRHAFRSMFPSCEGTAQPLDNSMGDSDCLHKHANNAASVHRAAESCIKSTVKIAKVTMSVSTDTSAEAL
CNR1 I267L: Cannabinoid receptor 1 (CNR1, Homo sapiens, UniProt P21554, I267L)

`CC(C)[C@H](NC(=O)c1cc(-c2ccc(F)cc2)nn1CCCCCF)C(N)=O` gave a Ki of 319 nM (CNR1; ligand displacement in cells, radioligand).
The EC50 of `O=C(c1ccc2c(c1)c1ccccc1n2CCN1CCOCC1)c1cccc2ccccc12` is reported as 102 nM (CNR1; GTPγS binding, agonist, radiometric; cell membranes).
The IC50 of `CCCCCc1cc(OC(=O)C(NC(=O)CCC(=O)O)C(C)C)c2c(c1)OC(C)(C)C1CCC(C)=CC21` (stereo not shown) is reported as 1590 nM (CNR1; ligand displacement, radioligand).
`CC1=C[C@H]2c3c(O)cc(CCc4ccccc4)cc3OC(C)(C)[C@H]2CC1` has an EC50 of 406 nM (CNR1; GTPγS binding, agonist, radiometric; cell membranes).
With `CCCCCn1nc(C(=O)NC23CC4CC(CC(C4)C2)C3)c2ccccc21` the Ki was 59.8 nM (CNR1; ligand displacement in cells, radioligand).
With `CCOC(=O)[C@@](CC)(CCCSCCOCCOCCNc1ccc([N+](=O)[O-])c2nonc12)NC(=O)c1ccc(C2CC2)c(Cc2ccc(F)cc2)n1` the EC50 was > 10000 nM (CNR1; cAMP, agonist).
`CCCCn1c2ccccc2c2cc(C(=O)c3cccc4ccccc34)ccc21` gave an EC50 of 102 nM (CNR1; GTPγS binding, agonist, radiometric; cell membranes).
`CCCCCn1cc(C(=O)c2ccc(OC)cc2)c2ccccc21` gave a Kd of 0.0275 nM (CNR1; binding, SPR).
With `CN1CCCCC1Cn1c2ccccc2c2cc(C(=O)c3cccc4ccccc34)ccc21` (stereo not shown) the EC50 was 132 nM (CNR1; cAMP, agonist, BRET).
The EC50 of `CCCCCn1cc(C(=O)c2ccc3c(c2)CC(C)(C)C3)c2ccccc21` is reported as 166 nM (CNR1 I267L; G protein activation, agonist, BRET).
`CCCCCn1c2ccccc2c2cc(C(=O)c3ccncc3)ccc21` has an EC50 of 166 nM (CNR1; cAMP, agonist, BRET).
With `CCCCCn1cc(C(=O)c2ccc3ccccc3c2)c2ccccc21` the EC50 was 102 nM (CNR1; G protein activation, agonist, BRET).
The IC50 of `CC(=O)N/C(N)=N/C(=N\S(=O)(=O)c1ccc(C(F)(F)F)cc1)N1C[C@H](c2ccccc2)C(c2ccc(Cl)cc2)=N1` is reported as 0.021 nM (CNR1; β-arrestin recruitment, antagonist).
For `CCCCCn1cc(C(=O)c2cccc3ccccc23)cc1-c1ccccc1F`, the Ki was 37.4 nM (CNR1; ligand displacement in cells, radioligand).
The EC50 of `CCCCCn1cc(C(=O)c2cccc3c2CC(C)(C)C3)c2ccccc21` is reported as 631 nM (CNR1; β-arrestin recruitment, agonist, BRET).
`CCCCCCn1c2ccccc2c2cc(C(=O)c3cccc4ccccc34)ccc21` has an EC50 of 38 nM (CNR1; GTPγS binding, agonist, radiometric; cell membranes).
`CCCCCn1cc(C(=O)c2ccc(OC)cc2)c2ccccc21` has a Ki of 51.9 nM (CNR1; ligand displacement in cells, radioligand).
`O=C(c1ccc2c(c1)c1ccccc1n2CCN1CCCCC1)c1cccc2ccccc12` has an EC50 of 66.1 nM (CNR1; GTPγS binding, agonist, radiometric; cell membranes).
With `CCCCCn1cc(C(=O)c2cccc3ccccc23)c2ccccc21` the EC50 was 41.7 nM (CNR1 I267L; G protein activation, agonist, BRET).

Some of these lines once more:
`CCCCCn1c2ccccc2c2cc(C(=O)c3ccncc3)ccc21` has an EC50 of 166 nM (CNR1; cAMP, agonist, BRET).
